Experimental data of several laboratories.
Compare with care: the assays were run in different laboratories. ± marks the error that the study gave. Values after ≈ are worked out from the molar mass of the structure shown.

SMILES	cell line	test	test system	conditions	endpoint	value
CC(=O)N[C@H](C(=O)N[C@H](C(=O)N[C@@H](CCCNC(=N)N)C(=O)N1Cc2ccccc2C[C@H]1C(=O)N[C@@H](Cc1ccccc1)C(N)=O)C1CCCCC1)C(C)C	human PBMC	Bio-Plex multiplex, refers to: IL-13		500 µg/mL, 24 h	cytokine level	< 0.3 pg/mL
COc1ccc(-c2coc3c(CC=C(C)C)c(O)c(CC=C(C)C)c(O)c3c2=O)cc1O	K562	cell growth or viability, MTT		100 µg/mL	viability	11.6%
OC[C@H]1O[C@@H](Oc2ccc(O)cc2)[C@H](O)[C@@H](O)[C@@H]1O	A-375	CCK-8		200 µM, 72 h	cytotoxicity	not toxic
CCOC(=O)N1CCN(C(=O)[C@H](Cc2cccc(C(=N)N)c2)NS(=O)(=O)c2c(C(C)C)cc(C(C)C)cc2C(C)C)CC1	Calu-3	ATP content		concentration not given, 48 (unit not given)	cytotoxicity	0%
CCCCCCCOc1ccc(CC[C@](N)(CO)COP(=O)(O)O)cc1C(F)(F)F	primary human cardiac myocytes		supernatant	100 nM	time to phosphate metabolite detection	6 h
CC(C)=CCc1c2c(c(O)c3c(=O)c(-c4ccc(O)cc4)coc13)CC(C(C)(C)O)O2 (centres unmarked)	K562	cell growth or viability, MTT		12.5 µg/mL	viability	14.2%
C[C@@H]1NC(=O)[C@@H]2CSSC[C@H](NC(=O)[C@H](CC(=O)O)NC(=O)[C@H](CC(=O)O)NC(=O)CNC(=O)[C@H](CC(=O)O)NC(=O)[C@H](Cc3ccc(O)cc3)NC1=O)C(=O)N[C@@H](CCCCN)C(=O)N[C@@H](CO)C(=O)N[C@@H](C)C(=O)NCCc1cccc3c1Oc1c(cccc1-3)CCC(=O)N[C@@H](CO)C(=O)N2	HFLS-RA			concentration not given	cytotoxicity	not toxic
C[C@]12CC/C(=N\OCCN3CCOCC3)C=C1CCC1C2CC[C@]2(C)/C(=C/c3ccccn3)CCC12 (some centres unmarked)	BJ fibroblasts	alamarBlue		concentration not given, 72 h	cytotoxicity	not toxic
CCCCn1cc(C(=O)O)c(=O)c2cc(F)c(Nc3cc(OC)c(OC)c(OC)c3)c([N+](=O)[O-])c21	T47D	cell growth, SRB		72 h	IC50	2.84 ± 0.11 µg/mL (≈ 5.8 µM)
COC(=O)NC(C(=O)NN(Cc1ccc(Br)cc1)CC(O)(Cc1ccccc1)C(=O)NC1CCOC1)C(C)(C)C (centres unmarked)	2/4/A1 rat cell monolayer			pH 7.4, 1% BSA in receiver	Papp A-to-B	129 ± 10 ×10⁻⁶ cm/s
COc1cc2c(cc1O)[C@]1(O)C(=O)c3c(O)cc4c(c3O[C@@H]1CO2)C=CC(C)(C)O4	K562	cell growth or viability, MTT		50 µg/mL	viability	7.19%
CC/C=C\C/C=C\C/C=C\C/C=C\C/C=C\C/C=C\CCC(=O)OC(CO)COP(=O)([O-])OCC[N+](C)(C)C (centres unmarked)	human brain-like endothelial cells	LC-MS	in vitro BBB model	1 µM, 180 min, pH 7.4	intracellular accumulation	0.28 ± 0.02%
CCCCn1cc(C(=O)O)c(=O)c2cc(F)c(N)c([N+](=O)[O-])c21	PANC-1	cell growth, SRB		72 h	IC50	158 ± 21 µg/mL (≈ 487 µM)
CCCCn1cc(C(=O)O)c(=O)c2cc(F)c3c(nnn3-c3ccccc3OC)c21	T47D	cell growth, SRB		72 h	IC50	9.16 ± 0.58 µg/mL (≈ 22.3 µM)

For quick reference, copied from above:
SMILES	cell line	test	test system	conditions	endpoint	value
CCCCn1cc(C(=O)O)c(=O)c2cc(F)c(N)c([N+](=O)[O-])c21	PANC-1	cell growth, SRB		72 h	IC50	158 ± 21 µg/mL (≈ 487 µM)
